Measured values gathered from unrelated publications.
Parts stem from different laboratories: compare values within a part only. Changes are numbered by the printed parent chain.

Series 1
Target: Transcription factor SOX-2, HMG box (Sox2, Mus musculus, UniProt P48432, residues 41-119)
Chain of UniProt P48432 (41-119, looked up): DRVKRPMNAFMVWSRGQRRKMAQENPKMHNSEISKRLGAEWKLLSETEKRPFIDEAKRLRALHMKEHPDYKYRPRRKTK
Method: Spec-seq
Form: double-stranded DNA, one strand shown
Sample: in vitro
Concentration: not given
Setting: whole probe, mean of replicates
Baseline: not given
Reading: lower = stronger binding
Shared flanks, not repeated: GAGTCGTCTCGTCAGCAC … CCGTAGAGCACTCAGGTC
Sequence | relative binding energy [ln ratio]
CATTCAA | -1.88
GAGAGTT | 1.09
GGGTGTT | 1.24
CATCAGT | 0.5
CATGAAT | -0.341
CATCTGA | 0.854
ACAGGTT | 0.0193

Series 2
Target: ABI1, truncated, D143A, DHFR fusion (Arabidopsis thaliana)
Method: DHFR PCA, deep sequencing
Sample: yeast
Setting: methotrexate growth selection, single substitutions
Together with: (+)-ABA 200 µM
Baseline: wild-type fitted maximum
Reading: higher = stronger binding
Starting sequence: PYL1, truncated, DHFR fusion (Arabidopsis thaliana); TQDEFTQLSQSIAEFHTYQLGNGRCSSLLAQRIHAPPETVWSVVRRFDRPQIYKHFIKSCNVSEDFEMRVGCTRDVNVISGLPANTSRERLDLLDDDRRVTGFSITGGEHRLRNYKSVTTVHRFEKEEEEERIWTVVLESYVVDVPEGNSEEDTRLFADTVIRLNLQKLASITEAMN; partner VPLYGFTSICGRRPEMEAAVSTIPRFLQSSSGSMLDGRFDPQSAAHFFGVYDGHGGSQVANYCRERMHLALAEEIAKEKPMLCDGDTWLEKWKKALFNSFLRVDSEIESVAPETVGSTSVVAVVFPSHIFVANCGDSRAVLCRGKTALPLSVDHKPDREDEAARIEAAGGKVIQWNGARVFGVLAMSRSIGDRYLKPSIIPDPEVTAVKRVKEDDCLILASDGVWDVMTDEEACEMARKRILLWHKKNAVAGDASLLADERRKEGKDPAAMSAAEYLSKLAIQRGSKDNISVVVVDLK
Substitution | relative binding score [%]
S140R | 4
C25W | 25.3
G81W | 0.708
E89F | -11.4
S140Y | 20.5

Series 3
Target: CCNB1, cyclin fold, Cln2 fusion (human)
Method: yeast growth competition, sequencing
Sample: yeast
Setting: strong parent motif
Baseline: not given
Reading: higher = stronger binding
Starting sequence: E2F1 docking peptide (human); PPVKRRLDFETDH
Substitution | normalised enrichment score
PPVKQRLDFETDH [R5Q] | 3.03
PPVKRRLDQETDH [F9Q] | 0.325
PPVKRRLDFETFH [D12F] | 4.67
PPVKRILDFETDH [R6I] | 1.92
PPVKRRLDFETKH [D12K] | 4.37
PPVKRRLGFETDH [D8G] | 1.93

Mixed results
Molecule | target | test | system | setting | how to read | quantity | result
PhoQ, residues 284 288 289 292 302 303 TLMATV | PhoP, residues 12 14 15 18 19 LYFRQ (Escherichia coli, UniProt P23836) | Sort-seq, refers to: YFP reporter | E. coli | PhoQ-PhoP variant library, together with: 10 µM Mg2+ | baseline: high Mg2+ state, higher = stronger signaling | fold induction | 6.47

Excerpt of the above (series 1):
Sequence | relative binding energy [ln ratio]
CATCAGT | 0.5
GAGAGTT | 1.09
